Experimental data from different studies.
Parts stem from different laboratories: compare values within a part only. Positions count from the first letter of the parent shown.

Sample 1 — target: CCNA2, cyclin fold, Cln2 fusion (human); technique: yeast growth competition, sequencing; medium: yeast; setting: strong parent motif; relative to: not given; reading: higher = stronger binding
Parent: PLK5 docking peptide (human); IFRKVGQRLLTQC
Substitution | normalised enrichment score
G6A | 1.69
Q7A | 1.73
L9A | 1.21
L10A | 0.979
C13A | 1.56
Q12A | 2.31

Sample 2 — technique: protein-binding microarray; molecule type: double-stranded DNA, one strand shown; medium: in vitro; tested at: 0.8 µM; setting: whole 60-bp probe, no competitor; reading: higher = stronger binding; all sequences stand within: … GTCTTGATTCGCTTGACGCTGCTG
Target: Centromere-binding protein 1, full length, N-terminal tag (CBF1, Saccharomyces cerevisiae, UniProt P17106, residues 1-351)
UniProt P17106, sequence (whole entry, looked up): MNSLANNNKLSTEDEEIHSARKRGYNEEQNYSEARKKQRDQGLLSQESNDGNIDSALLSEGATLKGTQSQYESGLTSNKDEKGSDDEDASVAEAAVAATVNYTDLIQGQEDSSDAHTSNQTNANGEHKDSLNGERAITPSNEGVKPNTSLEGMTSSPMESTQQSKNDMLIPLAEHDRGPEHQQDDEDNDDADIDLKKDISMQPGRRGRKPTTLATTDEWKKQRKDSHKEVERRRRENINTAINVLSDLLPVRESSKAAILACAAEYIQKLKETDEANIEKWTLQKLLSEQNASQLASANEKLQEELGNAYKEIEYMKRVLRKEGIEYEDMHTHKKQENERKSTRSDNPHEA
Oligonucleotide | fluorescence intensity [a.u.]
CTACACAAATATTTACACGTGAGAGAAAGGAAGTTC | 3640
GAAAGTTTTTAATACATCAGAACAGAAGGAAGTTAG | 670
GAATTTTTTTTTCATCACGCAAAGGAAATACAATAG | 705
TGTACGAAGCTATTGTGCGTGCGTATAGTAGTTAGG | 531
CTACAGTCCAAAAAGTACGTGCACCAAAAGAAGTTC | 595
CTAGCATGCGACGGTATCCACGTGCAGAACAACTTC | 4560
TGTACGAAGCTATTGATGATGATTATAGTAGTTAGG | 534
GAATATGACTTTCATCACCTTCCCATCTGAAGATAG | 487
CTATAGATAAATCACCACGAATCATTTGTTCGGTTC | 532
GAAATACACAAAGTGCACATGATCTTATAAAGTTAG | 2100
CTAACTCTTTTCTTGCACCTGCAGCCTTAGGTCTTC | 561
CTATTTGCAGATCATCACCCTGTGCGTTTTACATTC | 619
GAAGCAGAGTTGCCCCCCGTGGTACTGGAGAGATAG | 535
CTATTTCGAAGAGCTCATCAGACGTTTTTCAGTTTC | 534
GAAGCTTGTAAACATTTCGTGACTGCCCTCGAATAG | 549
CTATCCATAATGTTATATGTGATCTTTATCAACTTC | 531
CCTAACTACTATATGGGCATGACATAGCTTCGTACA | 543
CTATGTGTATGTTTCCACGTTTCTGCCTTGTGCTTC | 558
CTACTGTAGCAATGGAAGCTGATGTACCCCAAATTC | 556
CTATCCAGGCTGCGTCACCCGGATTAATGTTGTTTC | 527
GAAAATTTGTTGTTACACGAGGAGTATTAAAAATAG | 617
CTATTGATGAAATAGCACGTTCCCTTTGTTTGTTTC | 647
TGTACGAAGCTATAACACACGCATATAGTAGTTAGG | 529
GAAATATAGGGCGGTGATGATACCCATCGAGCTTAG | 503
GAAGCTTCCTCTATTGATGTTACACCTGGACACTAG | 521

Sample 3 — technique: protein-binding microarray; molecule type: double-stranded DNA, one strand shown; medium: in vitro; tested at: 940 nM top; setting: 60-bp whole probe; with: salmon DNA 0.4 mg/ml; relative to: random background probes; reading: higher = stronger binding; all sequences stand within: GCCTAGCAC … GTCTTGATTCGCTTGACGCTGCTG
Target: Interferon regulatory factor 5, full length, phosphomimetic (IRF5, Homo sapiens, UniProt Q13568-2, residues 1-514, S451D/S453D/S456D/S462D)
Oligonucleotide | fitted relative affinity [z-score]
TCAAATTGTCTTTTCACACTGTGCTAG | 0.461
TACGATATCAGACTGGAGACGTGCTAG | -0.512
TTAGATTTCCTTTTCCTTTAGTGCTAG | 0.886
TCATCTATTGCTTTCTCACTGTGCTAG | 1.42
AGATGGTCCTCTCTCTATTCGTGCTAG | 0.0383
TAGGGACTCGGGTCTCCCTTGGTGCTA | -0.536
TCATTTTTTTTTCTACTACTGTGCTAG | 1.84
CACGGACTGGGGTATCGGGACGTGCTA | 0.374
TTGAAAAAATATTTATTTCAGTGCTAG | -0.127
CTTGCTCTGTGCATAGGTCTGTGCTAG | -0.528
TTAGGTATCGGGTAGCGGTTAGTGCTA | 6.46
ATACCTTAGGTTTTCTGGTTGTGCTAG | 0.284
TTAGGACTGGGGTTTGGGTTAGTGCTA | 0.107
GACGATTTCAGCATCGAGACGTGCTAG | -0.287
TTAGGTTTCGGGACCGGGTTAGTGCTA | 9.28
TCATTTTTCCCTCTGGAACTGTGCTAG | 0.337
AAAACTCTTTATTTAAGCTCGTGCTAG | 0.67
GACGAACTGTGACTGGAGACGTGCTAG | -0.443
GACGATATCAGACTGTAGACGTGCTAG | -0.587
GACGGACTGATACTGCTGACGTGCTAG | -0.08
TTAGATTTCAGTTTCAATTAGTGCTAG | 3.57
ATAGGTTTCGGGACTGGGTTAGTGCTA | 6.99
GACGGACTGGGGACTGGTGACGTGCTA | -0.145
GACGATTTCAGTTCCTAGACGTGCTAG | 0.621
GACAGTATCGGGTATCGGGACGTGCTA | 5.75

Sample 4 — technique: RNA Bind-n-Seq; molecule type: RNA; medium: in vitro; tested at: 200 nM; setting: whole 134-nt RNA, ends assumed; with: 150 mM KCl; relative to: input library; reading: higher = stronger binding
Target: Fragile X messenger ribonucleoprotein 1, C-terminal low-complexity region (Fmr1, Mus musculus, UniProt P35922)
All sequences stand within: GGGAGUUCUACAGUCCGACGAUC … UGGAAUUCUCGGGUGUCAAGG
Oligonucleotide | log2 enrichment
GCAGGAAGUAAAAACAAAUGGAAAUGCUUCGGAUAGUGGCAGGGGUGGGGGUUGCUAAGGAAAGGGUGGGAUGGGAGGGGGUAAAGAGUU | 0.0172
UGGCCCUGGUGGCAUGCGGGGAGGAAGAGGUGGCCUCAUGGAUCGUGGUGGUCCCGGUAGAAUGUUCAGAGGUGGCCGUGGUGGAGACAG | 0.0192
UGGGAGGUGGAUUUUGUUUAUUUUUUUAGCUCAUUUCCAGGGGUGGGAAUUUUUAUUUAAUAUGUGUCAUGAAUAAAGUUGUUUUUGAAA | 0.403
CUCAAGUCCUGUGCUACACAUCGUAUGUACCGAAUCGGGUUGGUUGGUUGGGGAAAGUAUUAUGUUACGCCGUUCGGAUCUGCACUUCCA | 0.135
UGGGAGGUGGAUUUUGUUUAUUUUUUUAGCUCAUUUCCAGGUGUGGGAAUUUUUUUUUAAUAUGUGUCAUGAAUAAAGUUGUUUUUGAAA | -0.0794
ACCAUGCAGGUGGGCAUCUUUGGGAAGUGGGGCAAGGGGGGGAUAGGGAGGGCGGUAACACUUUGGGAACAGGUGGUCCCAGGUCGUUUC | 0.866
CCUCAAGUCCUGUGCUACACAUCGUAUGUACCGAAUCGGGGCGGCGGGCGGGGAAAGUAUUAUGUUACGCCGUUCGGAUCUGCACUUCCA | 0.891
AGUCCUGUGCUACACAUCGUAUGUACCGAAUCGGUUUUUUUGGUUUUUGGUUUUUGGAAAGUAUUAUGUUACGCCGUUCGGAUCUGCACU | -0.938
GCAGGAAGUAAAAACAAAUGGAAAUGCUUCGGAUAGUGGCAGGGGUGGGCGUUGCUAAGGAAAGGGUGGGAUGGGAGUGGGUAAAGAGUU | -0.062
UUGCCACUCUAAAUUCAGAAGAGGAGAGCGACCCUCCAACCUACAAGGAUGCCUUCCCUCCACUUCCUGAGAAAGCUGCUUGCCUGGAAA | -0.116
CACAGACAACACGCACCCACACAGACAUAGAGGGAAGGGGUUGGGAUGGGGACAGGGUGCACAGCAGGGCGGGGUAGGACCCCAGCCCCU | 1.2
CAAGUCCUGUGCUACACAUCGUAUGUACCGAAUCGGGAAAGGGUUUGGGUUUGGGAAAGUAUUAUGUUACGCCGUUCGGAUCUGCACUUC | 0.883
CAAGUCCUGUGCUACACAUCGUAUGUACCGAAUCGGCCCCGGGCCCCGGCCCCGGAAAGUAUUAUGUUACGCCGUUCGGAUCUGCACUUC | -0.248
UGUGCUACACAUCGUAUGUACCGAAUCGGGAAAAAAAGGGGAAAAAAAGGGGAAAAAAAGGGGAAAGUAUUAUGUUACGCCGUUCGGAUC | -0.0948

Sample 5 — target: UBE2I UBC core domain (UniProt P63279); technique: yeast two-hybrid; medium: yeast; setting: mostly zero background; relative to: not given; reading: higher = stronger interaction
B1: RNF149 RING domain (UniProt Q8NC42); chain EKGIDVDAENCAVCIENFKVKDIIRILPCKHIFHRICIDPWLLDHRTCPMCKLDVIKALGYW
B2: TRIM10 RING domain (UniProt Q9UDY6); chain SVTSLADEVNCPICQGTLREPVTIDCGHNFCRACLTRYCEIPGPDLEESPTCPLCKEPFRPGSFRP
B3: RNF43 RING domain (UniProt Q68DV7); chain SGSSCSSAPVCAICLEEFSEGQELRVISCLHEFHRNCVDPWLHQHRTCPLCMFNITEGDSFS
B4: RNF150 RING domain (UniProt Q9ULK6); chain DKETESDFDNCAVCIEGYKPNDVVRILPCRHLFHKSCVDPWLLDHRTCPMCKMNILKALGIP
B5: TRIM52 RING domain (UniProt Q96A61); chain PMQTLQEEAVCAICLDYFKDPVSISCGHNFCRGCVTQLWSKEDEEDQNEEEDEWEEEEDEEAV
B6: TRIM35 RING domain (UniProt Q9UPQ4); chain PSRSFKEELLCAVCYDPFRDAVTLRCGHNFCRGCVSRCWEVQVSPTCPVCKDRASPADLRT
B7: PHF7 RING domain (UniProt Q9BWX1); chain IQHGHVGEESCILCCEDLSQQSVENIQSPCCSQAIYHRKCIQKYAHTSAKHFFKCPQCNNRKEFPQEML
B8: UBE4A RING domain (UniProt Q14139); chain LQQQEEETYADACDEFLDPIMSTLMCDPVVLPSSRVTVDRSTIARHLLSDQTDPFNRSPLTMDQIRPNTELKEKIQRWLAERKQQKEQLE
Sequence | lacZ reporter activity
B1 (RNF149 RING domain) | 0
B2 (TRIM10 RING domain) | 0
B3 (RNF43 RING domain) | 0
KRQCSDVDDICSICQAEFQKPILLICQHIFCEECMTLWFNREKTCPLCRTVISDHINKW (RNFT1 RING domain (UniProt Q5M7Z0)) | 0
B4 (RNF150 RING domain) | 0
B5 (TRIM52 RING domain) | 0
MANWVFCNRCFQPPHRTSCFSLTNCGHVYCDACLGKGKKNECLICKAPCRTVLLSK (RNF212 RING domain (UniProt Q495C1)) | 0
B6 (TRIM35 RING domain) | 0
B7 (PHF7 RING domain) | 0
B8 (UBE4A RING domain) | 0
